# Assay results of several laboratories.
# A part holds a random share of what one study measured. Values joined by “and” are separate records of one study, mostly repeats; a detail may differ.
# UniProt P45984, sequence (whole entry, looked up): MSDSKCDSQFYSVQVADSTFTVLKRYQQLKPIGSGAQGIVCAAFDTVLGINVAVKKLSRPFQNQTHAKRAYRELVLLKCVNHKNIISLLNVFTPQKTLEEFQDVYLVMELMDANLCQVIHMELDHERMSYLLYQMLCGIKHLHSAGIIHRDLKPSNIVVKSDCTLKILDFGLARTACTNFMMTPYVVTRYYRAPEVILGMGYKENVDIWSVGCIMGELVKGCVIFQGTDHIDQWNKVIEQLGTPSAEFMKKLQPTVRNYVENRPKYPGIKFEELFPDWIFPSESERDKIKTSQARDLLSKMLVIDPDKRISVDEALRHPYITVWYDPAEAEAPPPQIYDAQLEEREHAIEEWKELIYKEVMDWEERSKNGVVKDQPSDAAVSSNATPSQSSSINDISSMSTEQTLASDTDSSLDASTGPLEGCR
# UniProt Q96RR4, sequence (whole entry, looked up): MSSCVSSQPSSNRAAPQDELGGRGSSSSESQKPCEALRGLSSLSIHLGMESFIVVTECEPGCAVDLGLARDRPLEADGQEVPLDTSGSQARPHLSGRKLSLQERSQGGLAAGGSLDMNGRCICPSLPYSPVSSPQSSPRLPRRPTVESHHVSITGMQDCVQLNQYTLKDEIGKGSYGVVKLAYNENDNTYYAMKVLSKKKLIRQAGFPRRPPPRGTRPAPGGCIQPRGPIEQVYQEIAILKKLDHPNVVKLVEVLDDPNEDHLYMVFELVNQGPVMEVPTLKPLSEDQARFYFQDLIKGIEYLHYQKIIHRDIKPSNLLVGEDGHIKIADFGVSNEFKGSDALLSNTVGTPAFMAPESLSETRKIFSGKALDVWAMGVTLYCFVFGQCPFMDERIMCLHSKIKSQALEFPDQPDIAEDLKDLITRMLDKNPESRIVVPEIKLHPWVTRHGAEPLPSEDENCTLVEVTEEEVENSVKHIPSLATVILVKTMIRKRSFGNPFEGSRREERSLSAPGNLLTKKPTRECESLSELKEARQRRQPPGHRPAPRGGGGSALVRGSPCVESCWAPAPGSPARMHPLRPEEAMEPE
# UniProt Q13976, sequence (whole entry, looked up): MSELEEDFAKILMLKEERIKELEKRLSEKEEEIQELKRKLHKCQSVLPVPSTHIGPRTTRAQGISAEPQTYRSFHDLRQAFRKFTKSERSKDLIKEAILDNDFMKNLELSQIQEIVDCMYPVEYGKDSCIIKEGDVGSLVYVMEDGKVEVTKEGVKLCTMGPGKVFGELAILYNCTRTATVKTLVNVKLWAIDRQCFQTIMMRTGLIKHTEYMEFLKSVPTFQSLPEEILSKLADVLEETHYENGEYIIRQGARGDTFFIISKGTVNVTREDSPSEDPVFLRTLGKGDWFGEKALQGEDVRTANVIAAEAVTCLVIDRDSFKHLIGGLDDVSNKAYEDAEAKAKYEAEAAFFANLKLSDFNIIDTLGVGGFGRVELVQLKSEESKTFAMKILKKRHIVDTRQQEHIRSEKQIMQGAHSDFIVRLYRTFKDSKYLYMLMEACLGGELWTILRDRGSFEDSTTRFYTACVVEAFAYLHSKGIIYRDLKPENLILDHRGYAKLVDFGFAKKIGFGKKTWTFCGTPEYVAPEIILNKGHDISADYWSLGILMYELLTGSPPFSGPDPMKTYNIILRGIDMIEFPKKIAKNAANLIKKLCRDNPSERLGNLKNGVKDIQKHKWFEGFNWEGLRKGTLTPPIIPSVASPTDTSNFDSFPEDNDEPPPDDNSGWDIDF
# UniProt Q99759, sequence (whole entry, looked up): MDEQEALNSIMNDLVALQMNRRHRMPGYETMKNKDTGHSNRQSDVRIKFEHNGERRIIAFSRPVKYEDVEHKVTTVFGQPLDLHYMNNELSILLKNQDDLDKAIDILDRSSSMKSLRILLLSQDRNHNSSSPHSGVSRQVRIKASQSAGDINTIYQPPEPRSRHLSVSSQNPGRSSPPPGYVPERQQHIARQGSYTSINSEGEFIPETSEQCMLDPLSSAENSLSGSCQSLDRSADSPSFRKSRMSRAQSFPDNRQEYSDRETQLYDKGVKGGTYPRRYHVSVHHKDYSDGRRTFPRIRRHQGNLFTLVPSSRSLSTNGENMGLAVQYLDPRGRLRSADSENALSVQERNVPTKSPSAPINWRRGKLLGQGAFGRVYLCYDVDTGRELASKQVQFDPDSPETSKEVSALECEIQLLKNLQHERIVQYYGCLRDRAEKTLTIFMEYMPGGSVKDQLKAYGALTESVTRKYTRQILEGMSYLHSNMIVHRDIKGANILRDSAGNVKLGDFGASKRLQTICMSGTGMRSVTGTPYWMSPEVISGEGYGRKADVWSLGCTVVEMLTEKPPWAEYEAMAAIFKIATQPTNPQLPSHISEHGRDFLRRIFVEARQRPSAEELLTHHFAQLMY
# UniProt Q32MK0, sequence (whole entry, looked up): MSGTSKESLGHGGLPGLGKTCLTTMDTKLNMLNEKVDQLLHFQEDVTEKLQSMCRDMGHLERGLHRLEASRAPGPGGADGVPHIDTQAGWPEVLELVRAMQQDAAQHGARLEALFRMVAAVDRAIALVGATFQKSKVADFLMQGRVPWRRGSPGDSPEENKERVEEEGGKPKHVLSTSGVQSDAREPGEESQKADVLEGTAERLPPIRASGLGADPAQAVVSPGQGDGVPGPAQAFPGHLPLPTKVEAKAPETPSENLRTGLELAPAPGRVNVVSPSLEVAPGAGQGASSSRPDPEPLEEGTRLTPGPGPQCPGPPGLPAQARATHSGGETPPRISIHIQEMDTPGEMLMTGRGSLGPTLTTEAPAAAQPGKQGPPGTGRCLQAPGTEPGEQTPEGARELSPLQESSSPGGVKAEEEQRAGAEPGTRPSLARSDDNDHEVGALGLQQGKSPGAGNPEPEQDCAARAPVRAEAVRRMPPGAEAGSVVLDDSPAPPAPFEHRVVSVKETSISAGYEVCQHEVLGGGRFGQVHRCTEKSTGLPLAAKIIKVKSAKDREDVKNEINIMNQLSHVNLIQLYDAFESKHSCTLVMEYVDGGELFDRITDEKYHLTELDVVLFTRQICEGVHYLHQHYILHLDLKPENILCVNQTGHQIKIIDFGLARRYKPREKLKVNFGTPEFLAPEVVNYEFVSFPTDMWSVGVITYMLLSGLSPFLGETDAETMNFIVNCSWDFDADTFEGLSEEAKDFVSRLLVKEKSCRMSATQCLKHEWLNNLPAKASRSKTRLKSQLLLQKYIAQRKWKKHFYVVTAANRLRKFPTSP
# UniProt P50613, sequence (whole entry, looked up): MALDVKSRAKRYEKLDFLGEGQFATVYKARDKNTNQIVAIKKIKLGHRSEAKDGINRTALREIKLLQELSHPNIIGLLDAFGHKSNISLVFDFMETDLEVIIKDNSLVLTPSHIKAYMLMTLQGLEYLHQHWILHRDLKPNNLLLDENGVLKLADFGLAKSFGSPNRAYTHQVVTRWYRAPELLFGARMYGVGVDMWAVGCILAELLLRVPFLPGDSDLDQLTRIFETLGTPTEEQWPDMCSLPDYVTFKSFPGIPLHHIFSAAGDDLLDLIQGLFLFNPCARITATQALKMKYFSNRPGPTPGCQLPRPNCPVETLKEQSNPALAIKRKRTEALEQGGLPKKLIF
# UniProt P07948, sequence (whole entry, looked up): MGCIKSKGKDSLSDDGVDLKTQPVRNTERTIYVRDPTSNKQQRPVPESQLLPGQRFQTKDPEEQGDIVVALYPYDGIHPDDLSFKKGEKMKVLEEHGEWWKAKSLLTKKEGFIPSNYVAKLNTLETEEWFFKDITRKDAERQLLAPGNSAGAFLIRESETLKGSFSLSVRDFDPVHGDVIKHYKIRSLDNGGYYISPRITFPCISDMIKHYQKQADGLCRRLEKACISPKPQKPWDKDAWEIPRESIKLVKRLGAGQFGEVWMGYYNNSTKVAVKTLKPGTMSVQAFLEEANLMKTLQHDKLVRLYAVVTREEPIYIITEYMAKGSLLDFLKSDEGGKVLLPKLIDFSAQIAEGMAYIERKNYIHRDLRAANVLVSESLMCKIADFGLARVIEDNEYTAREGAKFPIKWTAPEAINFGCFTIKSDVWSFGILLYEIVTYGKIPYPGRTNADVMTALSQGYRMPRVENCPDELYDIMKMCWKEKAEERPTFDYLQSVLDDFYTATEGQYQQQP
# UniProt Q13557, sequence (whole entry, looked up): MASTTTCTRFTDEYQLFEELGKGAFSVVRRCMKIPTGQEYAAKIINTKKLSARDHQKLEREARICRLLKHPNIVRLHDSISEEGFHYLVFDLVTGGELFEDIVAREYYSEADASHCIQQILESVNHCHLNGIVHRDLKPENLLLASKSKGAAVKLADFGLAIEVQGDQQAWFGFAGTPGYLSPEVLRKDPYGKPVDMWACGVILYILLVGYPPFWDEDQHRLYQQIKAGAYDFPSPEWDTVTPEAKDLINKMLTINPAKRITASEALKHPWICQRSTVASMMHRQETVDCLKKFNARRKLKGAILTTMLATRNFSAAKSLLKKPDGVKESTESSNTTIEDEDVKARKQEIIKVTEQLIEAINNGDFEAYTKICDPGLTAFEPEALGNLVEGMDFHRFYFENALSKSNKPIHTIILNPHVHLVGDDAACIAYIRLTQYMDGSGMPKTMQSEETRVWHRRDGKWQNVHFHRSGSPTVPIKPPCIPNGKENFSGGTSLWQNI
# UniProt P11802, sequence (whole entry, looked up): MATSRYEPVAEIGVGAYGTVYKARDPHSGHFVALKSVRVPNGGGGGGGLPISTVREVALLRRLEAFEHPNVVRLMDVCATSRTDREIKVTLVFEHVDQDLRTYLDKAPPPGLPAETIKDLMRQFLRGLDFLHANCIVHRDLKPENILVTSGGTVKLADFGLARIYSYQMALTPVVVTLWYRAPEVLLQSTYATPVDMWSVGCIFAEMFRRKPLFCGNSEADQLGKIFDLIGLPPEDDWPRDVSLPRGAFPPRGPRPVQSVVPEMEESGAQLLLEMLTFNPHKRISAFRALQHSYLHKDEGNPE

# Study 1
# Compound: CC(C)(C)c1cnc(CSc2cnc(NC(=O)C3CCN(CCCCCSc4cccc5c4CN(C4CCC(=O)NC4=O)C5=O)CC3)s2)o1 (stereo not shown)
# Species: NSG mouse, HuT78 xenograft
# Dose: dose not given
conditions,tumour volume
"subcutaneous, day 12",399 mm³ and 119 mm³ and 45.6 mm³ and 187 mm³ and 62.5 mm³
"subcutaneous, day 14",237 mm³ and 144 mm³ and 306 mm³ and 157 mm³ and 445 mm³
"intraperitoneal, day 12",0 mm³ and 94.2 mm³ and 75.4 mm³

# Study 2
# Structure (SMILES): CCCCc1c(-c2ccc(OC)cc2)[nH]c2nccnc12
# Observed: enzyme activity
# Mode: inhibitor
# Concentration: 0.5 µM
# Baseline: control
target,remaining activity
"GRK3 (Homo sapiens, UniProt P35626)",95.6%
"PRKACA (Homo sapiens, UniProt P17612)",96.6%
"Tyrosine-protein kinase Lyn, isoform B (LYN, Homo sapiens, UniProt P07948)",108%
"CAMKK2 (Homo sapiens, UniProt Q96RR4)",79.2%
"MAP3K3 (Homo sapiens, UniProt Q99759)",99.8%
"cGMP-dependent protein kinase 1, isoform beta (PRKG1, Homo sapiens, UniProt Q13976)",102%
"Cyclin-dependent kinase 5, with p25 (CDK5, Homo sapiens, UniProt Q00535)",41.3%
"DAPK1 (Homo sapiens, UniProt P53355)",90.6%
"TGFBR2 (Homo sapiens, UniProt P37173)",74.8%
"MAPK9 (Homo sapiens, UniProt P45984)",84.8%
"Protein kinase C beta type, isoform beta-I (PRKCB, Homo sapiens, UniProt P05771)",99.4%
"IKBKE (Homo sapiens, UniProt Q14164)",100%
"STK10 (Homo sapiens, UniProt O94804)",95.4%
"STK39 (Homo sapiens, UniProt Q9UEW8)",77.8%
"CAMK2D (Homo sapiens, UniProt Q13557)",93.3%
"PRKCA (Homo sapiens, UniProt P17252)",92.7%
"CHEK2 (Homo sapiens, UniProt O96017)",72.8%
"OXSR1 (Homo sapiens, UniProt O95747)",102%
"NEK2 (Homo sapiens, UniProt P51955)",115%
"TGFBR1 (Homo sapiens, UniProt P36897)",95%
"IKBKB (Homo sapiens, UniProt O14920)",102%
"Cyclin-dependent kinase 4, with cyclin D1 (CDK4, Homo sapiens, UniProt P11802)",60.4%
"STK11 (Homo sapiens, UniProt Q15831)",74.5%

# Study 3
# Method: PRP chromatography
# Notes: linear fit, 1 mL
SMILES,"logD 1,9-decadiene/water [log units]"
CC(C)C[C@@H]1NC(=O)[C@H](C)NC(=O)[C@@H](CCC(=O)N2CCCC2)NC(=O)[C@H](C)NC(=O)[C@H](C)NC(=O)[C@H](CC(C)C)NC(=O)[C@H](CC(C)C)NC1=O,-2.32
CC(C)C[C@@H]1NC(=O)[C@@H](C)NC(=O)[C@@H](CC(C)C)NC(=O)[C@@H](CC(C)C)NC(=O)[C@H](C(C)C)NC(=O)[C@H](CC(C)C)NC(=O)[C@@H](CC(C)C)NC1=O,0.51
CC(C)C[C@@H]1NC(=O)[C@H](CC(C)C)NC(=O)[C@H](CC(C)C)NC(=O)[C@H](CC(C)C)NC(=O)[C@H](C(C)C)NC(=O)[C@H](Cc2cscn2)NC(=O)[C@H](C)NC1=O,-1.84

# Study 4
# Compound: COc1cc(-c2cn(C3CCc4ccccc4N(CC(F)(F)F)C3=O)nn2)ccc1-n1ccc(C)n1 (stereo not shown)
# Observed: cell-free assay
# Method: competition with immobilised ligand
# Concentration: 1 µM
target,remaining binding [%]
"PIK3CA (Homo sapiens, UniProt P42336, M1043I)",100
"FLT3 (Homo sapiens, UniProt P36888, F691L/ITD)",80
"MYLK3 (Homo sapiens, UniProt Q32MK0)",100
"CSNK1G3 (Homo sapiens, UniProt Q9Y6M4)",86

# Study 5
# SMILES: COc1ccc2[nH]c3c4[nH]c5ccc(OC)cc5c4c4c(c3c2c1)C(=O)NC4=O
# Observed: binding
# Concentration: 1 µM
target,assay,remaining binding
"MAPK9 (Homo sapiens, UniProt P45984)",competition with immobilised ligand,55%
"EIF2AK2 (Homo sapiens, UniProt P19525)",,100%
"CDK7 (Homo sapiens, UniProt P50613)",competition with immobilised ligand,56%
"STK35 (Homo sapiens, UniProt Q8TDR2)",competition with immobilised ligand,80%

# Study 6
# Species: mouse
# Sample: microsomes or S9
# Concentration: 2 µM
# Time: 0.5 h
SMILES,remaining compound [%]
CCOc1cc(=O)n2c(c1C(=O)N1CCOCC1)CCCCC2,86.8
CC1=NOC(C)(CNC(=O)c2cc(C)ccc2C)C1 (stereo not shown),75
Fc1ccc(-c2cc(-c3nc4c5c(ncn4n3)CCC5)[nH]n2)cc1,22.2
CC(C)C(=O)N1CCN(c2cnc(N)c(-c3nc4ccccc4o3)c2)CC1,42.1
Cc1ccc(Cn2c(=O)c3ccc(C(=O)NC(C)C)cc3n3c(=O)n(C)nc23)cc1,94.7

# Study 7
# Cell line: HaCaT
# Concentration: 100 µM
# Time: 18 h
Compound,viability [%]
Cc1ccccc1C(=O)Nc1ccc(C(=O)N2CCCC(O)c3cc(Cl)ccc32)c(C)c1 (stereo not shown),64.6
CCOC(=O)c1c(C)n(C)c2ccc(O)cc12,54.7
Cc1c(C(=O)Nc2ccc(N3C[C@@H](C)O[C@@H](C)C3)nc2)cccc1-c1ccc(OC(F)(F)F)cc1,26
OC(CCCN1CCCCC1)(c1ccccc1)c1ccccc1,114

# Excerpt of the above (study 7):
Compound,viability [%]
Cc1ccccc1C(=O)Nc1ccc(C(=O)N2CCCC(O)c3cc(Cl)ccc32)c(C)c1 (stereo not shown),64.6
CCOC(=O)c1c(C)n(C)c2ccc(O)cc12,54.7
Cc1c(C(=O)Nc2ccc(N3C[C@@H](C)O[C@@H](C)C3)nc2)cccc1-c1ccc(OC(F)(F)F)cc1,26
OC(CCCN1CCCCC1)(c1ccccc1)c1ccccc1,114
